Published values from different studies.
Each line is one published result; not all experiments were run side by side. Numbers after ± are the reported error.
TFEB: Transcription factor EB (TFEB, Homo sapiens, UniProt P19484)
UniProt P19484, sequence (whole entry, looked up): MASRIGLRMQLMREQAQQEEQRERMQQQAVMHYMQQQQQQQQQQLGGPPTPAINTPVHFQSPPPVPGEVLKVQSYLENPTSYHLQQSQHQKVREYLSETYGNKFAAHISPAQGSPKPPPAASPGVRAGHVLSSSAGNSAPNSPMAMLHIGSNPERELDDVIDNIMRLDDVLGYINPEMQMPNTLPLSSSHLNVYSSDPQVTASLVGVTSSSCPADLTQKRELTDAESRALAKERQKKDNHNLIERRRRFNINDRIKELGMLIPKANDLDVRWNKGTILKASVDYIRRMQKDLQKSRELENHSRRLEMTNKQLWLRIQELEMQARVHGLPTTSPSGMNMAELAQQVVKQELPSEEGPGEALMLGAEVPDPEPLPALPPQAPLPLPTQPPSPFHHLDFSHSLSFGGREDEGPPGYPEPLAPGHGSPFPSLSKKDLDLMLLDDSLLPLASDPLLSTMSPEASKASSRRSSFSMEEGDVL
UniProt P08913, sequence (whole entry, looked up): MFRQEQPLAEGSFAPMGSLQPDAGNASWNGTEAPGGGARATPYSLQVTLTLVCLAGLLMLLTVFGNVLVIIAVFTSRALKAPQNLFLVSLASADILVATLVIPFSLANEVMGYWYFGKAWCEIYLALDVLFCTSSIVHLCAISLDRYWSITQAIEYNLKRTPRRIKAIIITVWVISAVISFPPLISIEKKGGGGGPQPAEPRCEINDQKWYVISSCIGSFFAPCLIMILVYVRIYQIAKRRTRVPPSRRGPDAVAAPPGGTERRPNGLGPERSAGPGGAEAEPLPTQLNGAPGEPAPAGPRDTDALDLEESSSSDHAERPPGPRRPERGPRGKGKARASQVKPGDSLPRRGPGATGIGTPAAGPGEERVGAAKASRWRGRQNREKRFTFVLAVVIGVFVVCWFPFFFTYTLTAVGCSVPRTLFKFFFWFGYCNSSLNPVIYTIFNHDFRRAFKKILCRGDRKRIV
UniProt O88703, sequence (whole entry, looked up): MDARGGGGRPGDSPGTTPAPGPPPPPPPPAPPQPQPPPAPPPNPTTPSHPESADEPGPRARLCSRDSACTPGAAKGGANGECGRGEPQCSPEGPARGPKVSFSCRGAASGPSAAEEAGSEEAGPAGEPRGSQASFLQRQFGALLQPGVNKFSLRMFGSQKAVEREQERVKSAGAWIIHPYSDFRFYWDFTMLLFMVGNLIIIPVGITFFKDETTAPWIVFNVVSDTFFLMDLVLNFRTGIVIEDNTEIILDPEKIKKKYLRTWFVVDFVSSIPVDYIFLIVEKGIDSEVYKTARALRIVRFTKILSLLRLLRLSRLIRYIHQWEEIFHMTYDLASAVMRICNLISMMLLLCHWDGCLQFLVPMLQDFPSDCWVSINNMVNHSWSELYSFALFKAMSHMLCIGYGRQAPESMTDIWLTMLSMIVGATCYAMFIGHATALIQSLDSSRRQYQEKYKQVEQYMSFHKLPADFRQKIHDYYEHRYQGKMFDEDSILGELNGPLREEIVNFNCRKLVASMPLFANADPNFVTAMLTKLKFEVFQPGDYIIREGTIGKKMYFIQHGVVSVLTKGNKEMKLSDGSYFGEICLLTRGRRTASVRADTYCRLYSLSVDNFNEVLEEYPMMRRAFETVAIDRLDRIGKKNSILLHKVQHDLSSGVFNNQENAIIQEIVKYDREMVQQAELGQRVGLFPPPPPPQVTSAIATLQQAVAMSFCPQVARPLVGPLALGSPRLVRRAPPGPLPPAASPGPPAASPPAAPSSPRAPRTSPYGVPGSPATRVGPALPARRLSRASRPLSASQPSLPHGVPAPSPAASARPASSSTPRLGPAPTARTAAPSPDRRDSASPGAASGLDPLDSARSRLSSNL
UniProt P34972, sequence (whole entry, unmodified, looked up): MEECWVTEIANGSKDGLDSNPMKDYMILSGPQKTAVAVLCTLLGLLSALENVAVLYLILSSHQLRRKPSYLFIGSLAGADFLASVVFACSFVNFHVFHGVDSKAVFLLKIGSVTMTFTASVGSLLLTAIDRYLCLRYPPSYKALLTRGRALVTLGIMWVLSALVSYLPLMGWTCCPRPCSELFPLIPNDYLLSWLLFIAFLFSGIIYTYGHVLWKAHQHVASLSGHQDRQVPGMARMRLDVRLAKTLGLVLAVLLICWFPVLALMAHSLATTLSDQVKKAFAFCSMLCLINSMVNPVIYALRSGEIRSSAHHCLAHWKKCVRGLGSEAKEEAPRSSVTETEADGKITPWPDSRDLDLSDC
UniProt P48169, sequence (whole entry, looked up): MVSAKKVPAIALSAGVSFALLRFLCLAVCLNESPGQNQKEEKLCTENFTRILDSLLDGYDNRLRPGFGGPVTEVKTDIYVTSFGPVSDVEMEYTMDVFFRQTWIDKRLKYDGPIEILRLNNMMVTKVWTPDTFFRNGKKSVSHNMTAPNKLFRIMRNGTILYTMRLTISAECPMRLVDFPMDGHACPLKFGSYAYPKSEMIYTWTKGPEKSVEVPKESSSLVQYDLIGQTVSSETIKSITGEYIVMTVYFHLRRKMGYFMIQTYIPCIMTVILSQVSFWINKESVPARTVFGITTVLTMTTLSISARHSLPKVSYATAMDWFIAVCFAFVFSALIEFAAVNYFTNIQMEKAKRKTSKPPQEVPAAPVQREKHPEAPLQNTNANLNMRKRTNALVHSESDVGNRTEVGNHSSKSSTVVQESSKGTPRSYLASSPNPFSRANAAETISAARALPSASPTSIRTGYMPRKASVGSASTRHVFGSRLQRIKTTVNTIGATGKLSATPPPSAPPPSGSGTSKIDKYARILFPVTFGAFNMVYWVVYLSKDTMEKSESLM
UniProt P51582, sequence (whole entry, looked up): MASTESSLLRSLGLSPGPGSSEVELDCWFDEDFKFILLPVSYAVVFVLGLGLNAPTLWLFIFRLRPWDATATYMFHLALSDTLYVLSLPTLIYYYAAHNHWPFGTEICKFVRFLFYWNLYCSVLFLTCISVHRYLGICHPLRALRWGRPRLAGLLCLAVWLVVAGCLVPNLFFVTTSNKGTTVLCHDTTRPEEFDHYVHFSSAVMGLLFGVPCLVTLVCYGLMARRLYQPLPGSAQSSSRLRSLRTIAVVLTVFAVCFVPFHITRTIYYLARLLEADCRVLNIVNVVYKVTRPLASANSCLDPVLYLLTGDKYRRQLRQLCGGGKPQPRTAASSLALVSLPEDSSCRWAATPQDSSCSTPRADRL
UniProt O14764, sequence (whole entry, looked up): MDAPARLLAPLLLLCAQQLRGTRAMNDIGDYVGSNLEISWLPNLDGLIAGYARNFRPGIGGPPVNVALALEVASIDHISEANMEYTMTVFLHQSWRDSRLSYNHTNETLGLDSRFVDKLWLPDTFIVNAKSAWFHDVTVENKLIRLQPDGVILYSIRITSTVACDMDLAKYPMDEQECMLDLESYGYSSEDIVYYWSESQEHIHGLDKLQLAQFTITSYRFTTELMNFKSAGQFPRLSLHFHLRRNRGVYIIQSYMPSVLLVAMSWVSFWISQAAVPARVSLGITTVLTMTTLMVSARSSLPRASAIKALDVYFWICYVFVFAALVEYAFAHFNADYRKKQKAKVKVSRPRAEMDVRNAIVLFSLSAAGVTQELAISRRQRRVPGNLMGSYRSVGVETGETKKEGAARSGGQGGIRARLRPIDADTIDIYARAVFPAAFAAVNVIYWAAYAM
UniProt P02730, sequence (whole entry, looked up): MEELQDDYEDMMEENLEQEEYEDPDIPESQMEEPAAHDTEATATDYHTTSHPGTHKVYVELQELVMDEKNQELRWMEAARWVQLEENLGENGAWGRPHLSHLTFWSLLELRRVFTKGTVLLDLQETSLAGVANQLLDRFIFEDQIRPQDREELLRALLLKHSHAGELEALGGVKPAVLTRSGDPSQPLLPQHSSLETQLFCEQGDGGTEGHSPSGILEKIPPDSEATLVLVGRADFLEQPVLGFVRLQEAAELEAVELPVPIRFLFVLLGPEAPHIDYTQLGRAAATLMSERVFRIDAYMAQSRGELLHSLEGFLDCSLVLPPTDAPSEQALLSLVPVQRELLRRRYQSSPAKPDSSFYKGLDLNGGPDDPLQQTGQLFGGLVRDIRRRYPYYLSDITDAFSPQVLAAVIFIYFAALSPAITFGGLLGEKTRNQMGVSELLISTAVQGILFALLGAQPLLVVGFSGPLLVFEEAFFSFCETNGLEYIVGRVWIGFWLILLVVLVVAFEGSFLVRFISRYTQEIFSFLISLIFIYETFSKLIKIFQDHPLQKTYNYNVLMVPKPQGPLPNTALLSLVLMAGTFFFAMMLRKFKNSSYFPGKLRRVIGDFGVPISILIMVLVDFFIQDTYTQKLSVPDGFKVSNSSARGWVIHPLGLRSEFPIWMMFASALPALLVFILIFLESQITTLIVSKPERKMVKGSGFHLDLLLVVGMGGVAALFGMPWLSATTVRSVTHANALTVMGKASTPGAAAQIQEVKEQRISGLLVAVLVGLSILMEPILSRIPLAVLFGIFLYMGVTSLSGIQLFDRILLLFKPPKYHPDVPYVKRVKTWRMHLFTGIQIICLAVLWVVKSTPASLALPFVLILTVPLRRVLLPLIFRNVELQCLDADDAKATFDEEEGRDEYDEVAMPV
UniProt Q8BZP8, sequence (whole entry, looked up): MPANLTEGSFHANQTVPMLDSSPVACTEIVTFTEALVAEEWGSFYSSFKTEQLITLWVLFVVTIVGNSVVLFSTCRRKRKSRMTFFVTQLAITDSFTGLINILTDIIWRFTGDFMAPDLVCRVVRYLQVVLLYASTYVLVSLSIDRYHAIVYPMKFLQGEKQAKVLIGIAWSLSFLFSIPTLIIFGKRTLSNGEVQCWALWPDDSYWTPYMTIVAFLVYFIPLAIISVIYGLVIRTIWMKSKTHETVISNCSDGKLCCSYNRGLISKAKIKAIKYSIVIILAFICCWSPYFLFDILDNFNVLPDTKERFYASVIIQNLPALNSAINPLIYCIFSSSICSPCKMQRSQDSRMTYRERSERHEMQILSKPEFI

`cGMP` has a Kd of 6130 nM (Potassium/sodium hyperpolarization-activated cyclic nucleotide-gated channel 2, C-terminal region (Hcn2, Mus musculus, UniProt O88703); binding, isothermal titration calorimetry; C-linker/CNBD tetramer, site 4).
`CCCCN1C(=O)C(C=CC=CC=C2C(=O)N(c3ccc(S(=O)(=O)O)cc3)N=C2C)C(=O)N(CCCC)C1=O` gave a Ki of 1700 nM (SLC4A1 (Homo sapiens, UniProt P02730); chloride exchange, 36Cl flux, refers to: inward-facing iodide-loaded transporter; 0 °C, Dixon plot, initial binding).
`CCCCCCCCCCCCCC(=O)O[C@@H]1[C@@H](C)[C@@]2(O)[C@@H](C=C(CO)C[C@]3(O)C(=O)C(C)=C[C@@H]23)[C@H]2C(C)(C)[C@]12OC(C)=O` gave a remaining activity of 173 ± 30% (PKCθ rat; kinase activity; 1 µM, immunoprecipitated enzyme, together with: histone H1 substrate; baseline: untreated).
`COc1ccc(CC2=[N+](C)CCc3cc(OC)c(O)cc32)cc1O` — result for “substrate inhibition constant”: 109 ± 23.4 µM (Papaver glaucum DRR; enzyme activity, substrate, LC-MS product formation; Papaver glaucum; together with: NADPH 500 µM).
With `CCCCCCCCCCCCCCCC[N+](C)(C)C` the AC50 was 6620 nM (TFEB; nuclear translocation, activator, GFP-TFEB imaging; AML12; 2 h; baseline: Torin 1).
The AC50 of `anthraquinone-neomycin` is reported as 713 ± 123 nM (intramolecular DNA triplex hairpin; thiazole orange displacement, fluorescent intercalator displacement; pH 6.8, KCl 150 mM, together with: thiazole orange 700 nM).
`C[C@@]1(O)CC[C@@]2(C)[C@@H](CC[C@@H]3[C@@H]2CC[C@]2(C)[C@@H](c4cc(CO)on4)CC[C@@H]32)C1` gave an EC50 of 1040 ± 450 nM (Gamma-aminobutyric acid receptor subunit alpha-4/beta3/delta (Homo sapiens, UniProt O14764+P28472+P48169); GABA current potentiation, positive modulator, two-electrode voltage clamp; Xenopus laevis oocytes; 30 s preincubation, together with: GABA EC10).
`CCCCC/C=C\C/C=C\C/C=C\C/C=C\CCCC(=O)OC(CO)CO` has an EC50 of 1480 nM (CNR2 (Homo sapiens, UniProt P34972, Q63R); β-arrestin 2 recruitment, agonist, BRET; HEK293 coexpressing GRK6).
`BP(=O)(OC[C@H]1O[C@@H](n2ccc(=O)[nH]c2=O)[C@H](O)[C@@H]1O)OP(=O)(O)OP(=O)(O)OP(=O)(O)OC[C@H]1O[C@@H](n2ccc(=O)[nH]c2=O)[C@H](O)[C@@H]1O` (stereo partly shown) gave an EC50 of 16800 nM (P2Y purinoceptor 4 (P2RY4, Homo sapiens, UniProt P51582); calcium signal, agonist, fluorescence).
The EC50 of `CCCN(C/C=C/I)C1CCc2ccc(O)cc2C1` (stereo not shown) is reported as 120 ± 6 nM (ADRA2A (Homo sapiens, UniProt P08913); G protein activation, agonist, BRET, refers to: Gαi2; HEK293T, transfected; Emax below 50%).
The Kb of `O=C(NCc1ccc(F)cc1)N1CCN2C(=O)OC(c3ccccc3)(c3ccccc3)C2C1` (stereo not shown) is reported as 10.2 nM (Neuropeptide S receptor (Mus musculus, UniProt Q8BZP8); calcium mobilization, antagonist; HEK293 expressing mouse NPSR; 24 min preincubation, 37 °C, together with: 30 nM PWT1-NPS).
`CC[C@@H](C(=O)[C@@H](C)[C@@H](O)[C@H](C)[C@@H]1O[C@@H]([C@@H](CC)C(=O)O)CC[C@@H]1C)[C@H]1O[C@]2(C=C[C@@H](O)[C@]3(CC[C@@](C)([C@H]4CC[C@](O)(CC)[C@H](C)O4)O3)O2)[C@H](C)C[C@@H]1C` has an AC50 of 2640 nM (TFEB; nuclear translocation, activator, GFP-TFEB imaging; AML12; 2 h; baseline: Torin 1).
With `c1ccc(CCN2CCCCC2)cc1` the Ki was over 10000 nM (serotonin receptors, rat; binding; rat cerebral cortex; together with: [3H]LSD 5 nM).

Some of these lines once more:
`CCCCN1C(=O)C(C=CC=CC=C2C(=O)N(c3ccc(S(=O)(=O)O)cc3)N=C2C)C(=O)N(CCCC)C1=O` gave a Ki of 1700 nM (SLC4A1 (Homo sapiens, UniProt P02730); chloride exchange, 36Cl flux, refers to: inward-facing iodide-loaded transporter; 0 °C, Dixon plot, initial binding).
`CCCCCCCCCCCCCC(=O)O[C@@H]1[C@@H](C)[C@@]2(O)[C@@H](C=C(CO)C[C@]3(O)C(=O)C(C)=C[C@@H]23)[C@H]2C(C)(C)[C@]12OC(C)=O` gave a remaining activity of 173 ± 30% (PKCθ rat; kinase activity; 1 µM, immunoprecipitated enzyme, together with: histone H1 substrate; baseline: untreated).
